Published values gathered from unrelated publications.
Lines come from different studies, so protocols differ.
Observed: cell growth or viability

O=C1C(NCCc2c[nH]c3ccccc23)=CC2=NCCc3c[nH]c1c32  CC50 (HCT-116; MTT; 72 h): 2 µM
CCN(c1ccc(C)cc1)c1ccc(NC(=O)CN(C)c2ccccc2N2CCCC2=O)cc1  CC50 (HepG2; ATP luminescence; 48 h): > 40 µM
NC1=CC2=NCCc3c[nH]c(c32)C1=O  CC50 (HCT-116; MTT; 72 h): 0.19 µM
Cc1ccc(N(c2ccc(NC(=O)CN(C)c3ccccc3N3CCCC3=O)cn2)C(C)C)cc1  CC50 (HepG2; ATP luminescence; 48 h): > 40 µM
O[C@H](CN1CCN(C(c2ccccc2)c2ccccc2)CC1)c1cc(Cl)cc2c1-c1ccc(Cl)cc1C2  CC50 (HepG2; 48 h): > 50 µM
O=C(Sc1cccccc1=O)c1ccccc1  CC50 (HepDES19; MTS; 72 h): 66.7 µM
Cc1ccc(Oc2ccc(NC(=O)CN(C)c3ccccc3N3CCCC3=O)cc2)cc1  CC50 (HepG2; ATP luminescence; 48 h): > 40 µM
O=c1[nH]cnc2c1ncn2[C@H]1CC[C@@H](CO)O1  CC50 (MT4; MTT; 5 days): > 212 µM
Cc1ccc(Oc2ccc(NC(=O)CNc3ccccc3-n3cncn3)cc2)cc1  CC50 (HepG2; ATP luminescence; 48 h): > 40 µM
O=C(Nc1ccc([N+](=O)[O-])cc1Cl)c1cc(Cl)ccc1O  CC50 (A549; resazurin; 72 h): 1 µM
CC1CS(=O)(=O)CCN1/N=C/c1ccc([N+](=O)[O-])o1 (stereo not shown)  CC50 (THP-1; WST-1; 24 h): > 200 µM
CCCCNC[C@H](O)c1cc(Cl)cc2c1-c1ccc(Cl)cc1C2  CC50 (HepG2; 48 h): 20.9 µM
Cc1ccc(N(c2ccc(NC(=O)CN(C)c3ccccc3N3CCCC3=O)cc2)C(C)C)cc1  CC50 (HepG2; ATP luminescence; 48 h): > 40 µM
O=C1CCC(N2C(=O)c3cccc(NCCc4cn(Cc5ccc(-c6nc7cc(-c8ccccc8)ccn7c6Nc6ccc(C(=O)O)cc6)cc5)nn4)c3C2=O)C(=O)N1 (stereo not shown)  CC50 (HCT-116; 72 h): 151 µM
O[C@H](CNCCN1CCN(C(c2ccccc2)c2ccccc2)CC1)c1cc(Cl)cc2c1-c1ccc(Cl)cc1C2  CC50 (HepG2; MTT; 72 h): 8 µM
Cc1ccc(C(C)(C)c2ccc(NC(=O)CN(C)c3ccccc3N3CCCC3=O)cc2)cc1  CC50 (HepG2; ATP luminescence; 48 h): > 40 µM
COc1ccc(S(=O)(=O)ON=C2C=C(C)C(=O)C(C)=C2)cc1  CC50 (DU-145): 3.75 µM
O=C1c2[nH]cc3c2C(=NCC3)c2c(-c3ccc(O)cc3)c[nH]c21  CC50 (HCT-116; MTT; 72 h): 0.2 µM
Nc1ccn([C@@H]2CS[C@H](CO)O2)c(=O)n1  CC50 (MT4; MTT; 5 days): > 87.2 µM
O[C@H](CNCCCC(F)(F)F)c1cc(Cl)cc2c1-c1ccc(Cl)cc1C2  CC50 (HepG2; MTT; 72 h): 6.9 µM
Cc1ccc(N(C)c2ccc(NC(=O)CN(C)c3ccccc3N3CCCC3=O)cc2)cc1  CC50 (HepG2; ATP luminescence; 48 h): > 40 µM
CCCCN(CCCC)CC(O)c1cc(Cl)cc2c1-c1ccc(Cl)cc1/C2=C/c1ccc(Cl)cc1 (stereo not shown)  CC50 (HepG2; MTT; 72 h): > 100 µM
COC(CNC1=CC2=NCCc3c[nH]c(c32)C1=O)c1c[nH]c2ccccc12 (stereo not shown)  CC50 (HCT-116; MTT; 72 h): 2 µM
CN(CC(=O)Nc1ccc(N(C)c2ccc(F)c(F)c2)cc1)c1ccccc1N1CCCC1=O  CC50 (HepG2; ATP luminescence; 48 h): > 40 µM
O[C@H](CN[C@@H](COCC1CC1)Cc1ccccc1)c1cc(Cl)cc2c1-c1ccc(Cl)cc1C2  CC50 (HepG2; 48 h): 13.4 µM

Excerpt of the above:
Cc1ccc(Oc2ccc(NC(=O)CN(C)c3ccccc3N3CCCC3=O)cc2)cc1  CC50 (HepG2; ATP luminescence; 48 h): > 40 µM
